Measured values from different studies.
Protocols differ between the studies behind these lines. Several values in a cell are separate wells, animals, samples, runs or records. ± marks the error that the study gave.
TDP1: Tyrosyl-DNA phosphodiesterase 1 (TDP1, Homo sapiens, UniProt Q9NUW8)
Chain of UniProt Q9NUW8 (whole entry, looked up): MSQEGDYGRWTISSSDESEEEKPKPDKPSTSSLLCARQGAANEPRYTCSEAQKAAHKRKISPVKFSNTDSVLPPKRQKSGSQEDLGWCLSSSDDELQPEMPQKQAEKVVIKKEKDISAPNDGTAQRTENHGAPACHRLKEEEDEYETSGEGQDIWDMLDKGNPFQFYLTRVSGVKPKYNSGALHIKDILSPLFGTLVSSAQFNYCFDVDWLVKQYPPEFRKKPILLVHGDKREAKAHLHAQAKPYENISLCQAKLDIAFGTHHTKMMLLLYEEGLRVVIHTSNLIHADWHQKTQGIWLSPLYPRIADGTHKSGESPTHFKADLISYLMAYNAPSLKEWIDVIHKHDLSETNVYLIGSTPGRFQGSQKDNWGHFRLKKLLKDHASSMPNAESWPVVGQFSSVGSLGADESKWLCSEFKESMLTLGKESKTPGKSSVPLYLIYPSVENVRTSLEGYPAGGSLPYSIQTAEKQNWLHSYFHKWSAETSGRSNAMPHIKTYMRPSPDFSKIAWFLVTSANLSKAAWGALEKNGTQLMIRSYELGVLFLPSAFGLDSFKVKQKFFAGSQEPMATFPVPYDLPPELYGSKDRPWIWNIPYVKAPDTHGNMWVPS

Under “tumour growth inhibition”, `CCCCCc1ccc(S(=O)(=O)N2CC2C(=O)OC)cc1` (stereo not drawn) is recorded as 67% (mouse, Lewis lung carcinoma; intraperitoneal, 15 mg/kg, 16 doses, day 15).
For `CC[C@H](C)[C@@H](C(=O)N[C@@H](CC(C)C)C(=O)N[C@@H](CO)C(=O)N[C@@H](CO)C(=O)N[C@H](C(=O)N[C@@H](CCC(=O)O)C(=O)N[C@H](C(=O)NCC(=O)N[C@@H](CO)C(=O)NCC(=O)N[C@H](C(=O)N1C[C@H](O)C[C@H]1C(N)=O)[C@@H](C)O)C(C)C)[C@@H](C)O)N(C)C(=O)[C@H](C)NC(=O)CN(C)C(=O)[C@H](Cc1ccccc1)NC(=O)[C@H](CO)NC(=O)[C@H](CO)NC(=O)[C@H](CCCNC(=N)N)NC(=O)[C@@H](NC(=O)[C@H](CC(C)C)NC(=O)[C@H](Cc1ccccc1)NC(=O)[C@H](Cc1c[nH]cn1)NC(=O)[C@H](C)NC(=O)[C@H](CC(C)C)NC(=O)[C@H](CCCNC(=N)N)NC(=O)[C@H](CCC(=O)O)NC(=O)[C@@H](NC(=O)[C@H](C)NC(=O)[C@@H]1CSSC[C@H](NC(=O)[C@H](CCCNC(=N)N)NC(=O)CC[C@H](NC(=O)CCCCCCCCCCCCCCCCCCC(=O)O)C(=O)O)C(=O)NCC(=O)N[C@@H]([C@@H](C)O)C(=O)N[C@@H](C)C(=O)N[C@@H]([C@@H](C)O)C(=O)N1)[C@@H](C)O)[C@@H](C)O`, the food intake was 76.9 ± 4% (male Sprague-Dawley rats; subcutaneous, 30 nmol/kg single dose, 24 h; reference: vehicle).
`Cc1[nH]nc2c1N=C(c1ccccc1Cl)c1cnc(N3CCOCC3)cc1N2` — result for “tumour growth inhibition”: 99% (mouse sample H TNBC PDX; oral, 15 mg/kg, 120 h, 5 days per week).
`COc1ccc(C2CC(Nc3ccc(-c4ccc(NC5=NN(C(C)=O)C(c6ccc(OC)cc6)C5)cc4)cc3)=NN2C(C)=O)cc1` (stereo not drawn) has an inhibition of 54.8% (carrageenan paw oedema; albino rat; oral, 50 mg/kg, 3 h; reference: vehicle).
`COc1cnc2cccc(N3CCc4c(cc(Cn5ccnc5)cc4-c4cn(C)nc4C(F)(F)F)C3=O)c2c1` has a tumour volume of 122 mm3 and 124 mm3 and 99 mm3 and 145 mm3 and 147 mm3 (BALB/c nude mice, MV4-11 xenograft; intraperitoneal, 75 mg/kg, day 21).
`COCC1CN(C2CCN(c3cc(OC)c(Nc4ncc(Br)c(Nc5ccc6c(c5P(C)(C)=O)OCCO6)n4)cc3C)CC2)C1`: “objective response rate” 0% (RECIST 1.1; advanced EGFR-mutant NSCLC patients; 240 mg once daily).
With `COCCOCCOCCNC(=O)Cc1cc(CC(=O)N[C@H]2C[C@H]3C(=O)Nc4cc(OCCOCCOCCOC)cc(n4)C(=O)N4CCC[C@H]4C(=O)Nc4cc(OCCOCCOCCOC)cc(n4)C(=O)N4CCC[C@H]4C(=O)Nc4cc(OCCOCCOCCOC)cc(n4)C(=O)N3C2)cc(CC(=O)N[C@H]2C[C@H]3C(=O)Nc4cc(OCCOCCOCCOC)cc(n4)C(=O)N4CCC[C@H]4C(=O)Nc4cc(OCCOCCOCCOC)cc(n4)C(=O)N4CCC[C@H]4C(=O)Nc4cc(OCCOCCOCCOC)cc(n4)C(=O)N3C2)c1` the TΔS was 4.493 ± 0.0239 kcal/mol (anion binding, ITC; water/methanol 70 vol% (84.0 mol%); 298 K, added: sodium sulfate).
`CC(=O)NCC(=O)N[C@@H](Cc1ccccc1)C(=O)N[C@@H](Cc1ccccc1)C(=O)N[C@@H](Cc1ccc(O)cc1)C(=O)NCC(=O)N[C@@H](Cc1ccc(O)cc1)C(=O)NCC(=O)N[C@@H](CO)C(=O)N[C@@H](CO)C(=O)N[C@@H](CO)C(=O)N[C@@H](CCCNC(=N)N)C(=O)N[C@@H](CCCNC(=N)N)C(=O)N[C@@H](C)C(=O)N1CCC[C@H]1C(=O)N[C@@H](CCC(N)=O)C(=O)N[C@H](C(=O)O)[C@@H](C)O`: “optimal hair growth concentration” 2 µM (male C57BL/6 mice depilated; topical, 300 µL once daily).
`COC1CN([C@H]2CC[C@H]([C@@]3(C)Oc4c(Cl)cc(C(=O)NCc5c(SC)cc(C)[nH]c5=O)c(C)c4O3)CC2)C1`: “log2 fold change” 0.503 (RNA-seq, refers to: SPP1 mouse homolog; mouse, HT-1376 xenograft, whole blood; dose not given; reference: vehicle).
With `O=C(O)c1ccc(Nc2c(-c3ccccc3)nc3ccc(CON=Cc4ccc(-n5cccn5)cc4)cn23)cc1` (mixture of isomers) the inhibition was 34% (TDP1; enzyme activity, inhibitor; 100 µM, unpurified compound).
`COc1ccc(NC(=O)c2ccc3[nH]c(-c4ccc(N(C)C)cc4)nc3c2)cn1` has a tumour volume of 186 mm3 and 113 mm3 and 239 mm3 and 110 mm3 (Lewis lung carcinoma, mice, syngeneic graft, subcutaneous; intraperitoneal, 25 mg/kg daily, day 0).
`COc1cc2c(NC3CCN(C(C)C)CC3)cc(N3CCOCC3)nc2cc1OCCCN1CCCC1`: “log2 fold change” -0.124 (TMT proteomics, refers to: SMOC1; 5xFAD mice, hippocampus; dose not given; reference: untreated 5xFAD mice).
`Cc1cccc(C)c1CNc1cc(C(=O)N2CCC2)cn2c(C)c(C)nc12` gave an inhibition of 91% (basal gastric acid secretion; pylorus-ligated rat; oral, 2 mg/kg).
The inhibition of `COc1ccc(C2CC(Nc3ccc(-c4ccc(NC5=NOC(c6ccc(OC)cc6)C5)cc4)cc3)=NO2)cc1` (stereo not drawn) is reported as 67.3% (carrageenan paw oedema; albino rat; oral, 100 mg/kg, 3 h).
For `COc1ccc(C(=O)CCc2cc(C(CCc3ccc(O)cc3OC)c3ccc(O)cc3)c(O)cc2OC)cc1` (racemic), the 12-HETE level was 8610 ± 3360 pg/mL (human blood; 0.3 µM, added: A23187).
`Cc1ccc(C=NOCc2ccc3nc(-c4ccccc4)c(Nc4ccc(C(=O)O)cc4)n3c2)cc1[N+](=O)[O-]` (mixture of isomers) gave an inhibition of 25.8% (TDP1; enzyme activity, inhibitor; 100 µM, unpurified compound).
`CN1CCC[C@]1(C)/C=C/S(=O)(=O)NC(=O)Nc1c2c(cc3c1CCC3)CCC2` has an IL-1β inhibition of 99.7% (human, whole blood ex vivo; 100 mg twice daily, day 14, 12 h, multiple ascending dose, added: LPS and ATP).
`COc1cc(O)ccc1CCC(c1ccc(O)cc1)c1cc2c(c(C)c1O)OC(c1ccc(O)cc1)CC2` (mixture of isomers) gave an amount of 105 ± 32 pg/mL blood (refers to: 5-HEPE; human whole blood; 0.3 µM, added: Escherichia coli).
With `CC(CCC(=O)NCc1ccc(C(=O)NO)cc1)C1CCC2C3C(O)CC4CC(O)CCC4(C)C3CCC12C` (stereo not drawn) the relative abundance was 14.7% (refers to: Glyco-conj; PCK rat (Pkhd1 mutant), bile; oral gavage, dose not given, 5 months; reference: total bile acids).
`c1ccc(C2CC(Nc3ccc(-c4ccc(NC5=NOC(c6ccccc6)C5)cc4)cc3)=NO2)cc1` (stereo not drawn) has an inhibition of 20.3% (carrageenan paw oedema; albino rat; oral, 50 mg/kg, 3 h; reference: vehicle).
`CCC(=O)N[C@@H](C)C(=O)OCC(=O)N[C@@H](C)C(=O)O`: “chain scission rate constant” 0.0139 h⁻¹ (water; pH 5, 65 °C).
With `Nc1nc2cc(CC[C@H]3C[C@@H](n4ccc5c(N)ncnc54)[C@H](O)[C@@H]3O)ccc2cc1Br` the tumour volume was 26 ± 3 mm3 (NCI-H520 xenograft, mouse; 10.0 mg/kg/day, day 27).
For `CC(C)=CCc1cc(C(=O)/C=C/c2ccc(O)cc2)c(O)cc1O`, the Vmax was 21.9 ± 1.12 pmol/min/mg (phase I metabolism; dog liver microsomes).
The food intake of `CC[C@H](C)[C@@H](C(=O)N[C@@H](CC(C)C)C(=O)N[C@@H](CO)C(=O)N[C@@H](CO)C(=O)N[C@H](C(=O)N[C@@H](CCC(=O)O)C(=O)N[C@H](C(=O)NCC(=O)N[C@@H](CO)C(=O)N[C@@H](CCCN)C(=O)N[C@H](C(=O)N1C[C@H](O)C[C@H]1C(N)=O)[C@@H](C)O)C(C)C)[C@@H](C)O)N(C)C(=O)[C@H](C)NC(=O)CN(C)C(=O)[C@H](Cc1ccccc1)NC(=O)[C@H](CO)NC(=O)[C@H](CO)NC(=O)[C@H](CCCNC(=N)N)NC(=O)[C@@H](NC(=O)[C@H](CC(C)C)NC(=O)[C@H](Cc1ccccc1)NC(=O)[C@H](Cc1c[nH]cn1)NC(=O)[C@H](C)NC(=O)[C@H](CC(C)C)NC(=O)[C@H](CCCNC(=N)N)NC(=O)[C@H](CCC(=O)O)NC(=O)[C@@H](NC(=O)[C@H](C)NC(=O)[C@@H]1CSSC[C@H](NC(=O)[C@H](CCCNC(=N)N)NC(=O)CC[C@H](NC(=O)CCCCCCCCCCCCCCCCCCC(=O)O)C(=O)O)C(=O)NCC(=O)N[C@@H]([C@@H](C)O)C(=O)N[C@@H](C)C(=O)N[C@@H]([C@@H](C)O)C(=O)N1)[C@@H](C)O)[C@@H](C)O` is reported as 80.3 ± 2.7% (male Sprague-Dawley rats; subcutaneous, 30 nmol/kg single dose, 24 h; reference: vehicle).
With `CC(=O)[O-].O.[Cu+2].[O-]c1ccc(Br)cc1C=NCCN1CCOCC1` the inhibition was 35.2% (nitric oxide scavenging; 160 µM).
`CCCC[N+]1=c2cc3c4cc2[O][Mn-2]1(=[C]=O)(=[C]=O)(=[C]=O)[n+]1ccc(cc1)C(=O)Nc1ccccc1NC(=O)c1cc[n+](cc1)[Mn-2](=[C]=O)(=[C]=O)(=[C]=O)([O]3)[N+]=4CCCC` — result for “apparent CO release rate constant”: 0.00212 s⁻¹ (myoglobin; equine heart myoglobin; added: green LED light).
`CC(C)(C)NCC(SS(=O)(=O)O)c1ccccc1` (stereo not drawn) gave a spleen weight of 0.13 g and 0.14 g and 0.15 g (mouse infected with Schistosoma mansoni; 600 mg/kg, day 21 post-infection dosing once, perfusion day 52 post-infection).
